Measured values from different studies.
Numbered parts are unrelated; each lists some results of a single study. Changes are numbered by the printed parent chain.

Block 1
Target: Ras GTPase-activating protein-binding protein 1, C-terminal RGG region (G3BP1, Homo sapiens, UniProt Q13283)
Chain of UniProt Q13283 (whole entry, looked up): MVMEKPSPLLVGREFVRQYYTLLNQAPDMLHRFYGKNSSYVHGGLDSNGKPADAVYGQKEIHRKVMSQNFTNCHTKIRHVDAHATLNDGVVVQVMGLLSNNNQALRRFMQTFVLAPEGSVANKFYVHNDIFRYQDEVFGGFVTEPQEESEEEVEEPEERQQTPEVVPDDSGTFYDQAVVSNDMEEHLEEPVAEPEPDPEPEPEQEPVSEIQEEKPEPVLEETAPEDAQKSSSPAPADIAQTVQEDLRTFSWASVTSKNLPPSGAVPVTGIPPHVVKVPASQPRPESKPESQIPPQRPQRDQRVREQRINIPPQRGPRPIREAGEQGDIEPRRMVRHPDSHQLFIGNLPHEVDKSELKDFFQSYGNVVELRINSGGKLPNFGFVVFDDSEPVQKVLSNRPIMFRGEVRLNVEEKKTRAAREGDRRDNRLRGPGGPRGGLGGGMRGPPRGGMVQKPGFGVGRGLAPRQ
Method: RNA Bind-n-Seq
Molecule type: RNA
Matrix: in vitro
Concentration: 1 µM
Notes: whole 134-nt RNA, ends assumed
Added: 150 mM KCl
Baseline: input library
Direction: higher = stronger binding
Shared flanks, not repeated: GGGAGUUCUACAGUCCGACGAUC … UGGAAUUCUCGGGUGUCAAGG
| Sequence | log2 enrichment |
| --- | --- |
| CUCAAGUCCUGUGCUACACAUCGUAUGUACCGAAUCGGAAAAAGGAGGAAAGGAAAGUAUUAUGUUACGCCGUUCGGAUCUGCACUUCCA | -1.45 |
| AAGUCCUGUGCUACACAUCGUAUGUACCGAAUCGGGGAAAGGGGAAAGGGAAAGGGGAAAGUAUUAUGUUACGCCGUUCGGAUCUGCACU | 0.998 |
| UCAAGUCCUGUGCUACACAUCGUAUGUACCGAAUCGGGGAGGGGUGGGGAGGGGAAAGUAUUAUGUUACGCCGUUCGGAUCUGCACUUCC | 3.17 |
| UCCUGUGCUACACAUCGUAUGUACCGAAUCAAACCCCCAAACCCCCAAAUUUUUUUAAAAAAGUAUUAUGUUACGCCGUUCGGAUCUGCA | -0.695 |
| GUCCUGUGCUACACAUCGUAUGUACCGAAUCGGAAAAAGGUUUUUUUGGUUUUUUUGGAAAGUAUUAUGUUACGCCGUUCGGAUCUGCAC | -1.98 |
| CAAGUCCUGUGCUACACAUCGUAUGUACCGAAUCGGGUGGGUUUUUGGGAAAGGGAAAGUAUUAUGUUACGCCGUUCGGAUCUGCACUUC | 0.289 |
| AGUCCUGUGCUACACAUCGUAUGUACCGAAUCGGAAAAAGGGGAAAAAGGAAAAAGGAAAGUAUUAUGUUACGCCGUUCGGAUCUGCACU | -1.46 |
| UUCCCACAGCCCAAAAAUCUUCUCAACAGUGUGAUUGGAAGAGCCCUCGGCAUCUCACAUGCAAAAGACAAACUAGUCUACGUGCACACA | -0.715 |
| UGGGAGGUGGAUUUUGUUUAUUUUUUUAGCUCAUUUCCGGGGGUGGGAAUUUUUUUUUAAUAUGUGUCAUGAAUAAAGUUGUUUUUGAAA | 2.82 |
| CUUGACCCUCAACACCAACCAUGGGCAUAUCCUGGUGGAUUACUCCAAGAACCUGGUGACGGAGGACGUGAUGCGGAUGCUGGUGGACUU | -2.07 |
| GUCCUGUGCUACACAUCGUAUGUACCGAAUCGGAAAAAAGGAAAAAAGGAAAAAAGGGAAAGUAUUAUGUUACGCCGUUCGGAUCUGCAC | -1.66 |
| UAACUUUAGAGGAGGUUCUGAUGGAUAUGGCAGUGGACGUGGAUUUGGGGAUGGCUAUAAUGGGUAUGGAGGAGGACCUGGAGGUGGCAA | -1.37 |
| ACCAUGCAGGUGGGCAUCUUUGGGAAGUGGGGCAAGGGGGGGAUAGGGAGGAGGGUAACACUUUGGGAACAGGUGGUCCCAGGUCGUUUC | 1.45 |
| UGGCAGGAAAGAGUUCCUAGAGAGAGAAGACAAAGACAGUCUGUGUUGCAAAAGAAGCCCAAGGCUGAAGAUUUAAGAACUGAAUGUGCA | -1.79 |

Block 2
Target: ABI1, truncated, D143A, DHFR fusion (Arabidopsis thaliana, UniProt P49597)
Method: DHFR PCA, dose-response
Matrix: yeast
Notes: Hill fit, mean, not affinity
Added: (+)-ABA, dose series
Direction: lower = more sensitive
Starting sequence: PYL1, truncated, DHFR fusion (Arabidopsis thaliana, UniProt Q8VZS8); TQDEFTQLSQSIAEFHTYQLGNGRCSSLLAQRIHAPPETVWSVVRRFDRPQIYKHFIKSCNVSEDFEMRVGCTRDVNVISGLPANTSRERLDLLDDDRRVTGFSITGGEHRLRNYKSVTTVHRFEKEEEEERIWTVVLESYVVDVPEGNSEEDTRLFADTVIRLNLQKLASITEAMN
| Substitution | ABA EC50 [µM] |
| --- | --- |
| T86V | 44 |
| R113E | 5.84 |
| Q31L | 137 |
| Q19F | 8.12 |
| L138S | 868 |
| F5H | 3.19 |
| E147N | 3.91 |
| A170L | 56.8 |
| R49Y | 13.4 |
| T39F | 7.06 |
| V100R | 44.8 |
| A30D | 43.5 |
| T17G | 35.7 |
| V76Y | 23.8 |
| G107F | 270 |
| S150I | 42.9 |
| A175I | 3.73 |
| P36S | 2.31 |
| F5S | 4.87 |
| Y18I | 16.5 |
| G148W | 84.5 |
| V161A | 712 |
| D96H | 59.8 |
| Q31G | 168 |
| K168G | 4.58 |

Block 3
Target: Hepatocyte nuclear factor 3-alpha (Foxa1, Mus musculus, UniProt P35582, residues 1-468, full length assumed)
Method: EMSA with sequencing
Molecule type: double-stranded DNA, one strand shown
Matrix: in vitro
Concentration: 10 and 20 nM
Notes: whole designed probe, mean of two concentrations, ends assumed
Baseline: negative control set to 0
Direction: higher = stronger binding
Shared flanks, not repeated: GTGAGCGGTGCCCATTGATGGGGAAC … TTTCACTGGGATCGTGGGGAC
Target sequence (chain): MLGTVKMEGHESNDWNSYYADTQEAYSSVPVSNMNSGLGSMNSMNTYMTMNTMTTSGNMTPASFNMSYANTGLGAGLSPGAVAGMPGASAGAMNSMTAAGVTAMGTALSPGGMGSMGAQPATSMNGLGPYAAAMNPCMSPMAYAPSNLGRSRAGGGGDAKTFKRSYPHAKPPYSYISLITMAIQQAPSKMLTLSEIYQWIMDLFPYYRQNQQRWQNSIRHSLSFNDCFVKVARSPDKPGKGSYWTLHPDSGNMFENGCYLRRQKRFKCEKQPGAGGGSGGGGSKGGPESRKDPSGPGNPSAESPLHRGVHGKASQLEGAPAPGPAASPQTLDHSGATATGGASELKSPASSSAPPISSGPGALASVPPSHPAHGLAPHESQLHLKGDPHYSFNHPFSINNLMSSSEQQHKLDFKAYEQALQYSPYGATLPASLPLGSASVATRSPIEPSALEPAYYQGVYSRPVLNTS
| Sequence | normalised bound fraction |
| --- | --- |
| TGTTTTTAAATGGAGTTTAAAATAAACTGTTAAGAGCTCTGTTAAACTCCGGGCTTAGAGTATATTCTATTTTGGGATATTATTACTCAGTATGTAAACAAGCTGTACCAAGATAAACTGTACAAGATTTCATAATTCCTTGCTGCTCAAGAATAGCAGCTGGTTGCTGCAAAAATTTCAGTTTCCCCCCTAT | 0.389 ratio |
| ATAGAAATTAAACAGATATAAAACTAGTAAACTCAGATAAAACTAGCACATATGTGAGAGCAAATTCAGCAAAACAAACCTCTGAATTTCAAAGTAATCTTGTCCTTGAAGATGTGGAAACAGGGTCAAACTCCACCAATGTTCTGTGAGTCACAAAATTACTCTGAGATTCAGGGGTCAAGGGGGAAAGTTA | 0.000893 ratio |
| TTCTGAAATGTCTCCCTCAGCTTCTCTCATTCAAACGTAGACTCTGATCAATTTCACCATCAATGCCATTGCACAGAGACAGCGCTTTGACTAAGTAATCTAGACATCTTTTTCAACTAGTGCAGCCCAATGAATGTGGTTAATAATTAAGTGACTAATATTTTGTAAGGCTGTGTGAGAAGCATTAATTAGG | -0.0575 ratio |
| ATCTTCCCCCTCTTCCTTGCCCCACCAGCTCACCTTCCCGGGTTATTTGCACAAAGGAAAATAAATAAAGCCGGCATTCGTTAACGCAGTTCACGCGCATACTGCTGTTTGCTCTGCATGAATCATGGTCCTTACGCGACGCCAGGCTCCGGGAGAGCAAAGCACCGTGTCAGGCGCATGATCCGGGGTGGCC | 0.379 ratio |
| GCATCGAAATGTTTGTTAAGCCCATTGGAAGAACAGTACATCCTGGAACTATTATTGGCAAAGCAAATAGTGAGTGGCATTCAGAGTTTATGCTGTTTGCTCTGTGATACTGCTGGTATGAGTTTATGTCACACACAGGAGTTACCAAGAGGTGGCTCTTTCTGGGCTGGGCAATAGCTGTTTGTTCTTCAAT | 0.374 ratio |
| GGTGTTTAAGAAAACAAGCCAGAATTAGATAAAGTAAAACTTACTTTATTAAATAGGATGGACACCACTTCTCCCAAGAGAACTGTCTCCAAAAGTAAACAAGAAAGATCAATCTGGTAAACTCACATCATACAGGTTCCCGTGTAAGGTATCGGGTTCAGGCAGGTGGAAGCCAAATGATCGTAATTAAAGT | 0.448 ratio |
| TGAGGCCTGAGGTGGCAGTGGGGAGGAGCTCATGGGGAGCTTAATTGTACCATCCTGGTTATTACTCATTTCACAAACATTTACATGTCTCAGTGTTGACTTAGTAGTGACGACTGCTGGACCTCGTGCATCAAAGATTTGAGGTGAGGGAACACTTAAAGAATTGGCAGTAGCCACAGCATGAACCAACGGC | 0.32 ratio |
| ATCTTCCCCCTCTTCCTTGCCCCACCAGCTCACCTTCCCGGGTTATTTGCACAAAGGAAAATAAATAAAGCCGGCATTCGTTAACCCTCTTCTGGCGCAAACTGCTGTTTGCTCTGCATGAATCATGGTCCTTACGCGAGGCGTGGCTCCGGGAGAGCAAAGCACCGTGTCAGGCGCATGATCCGGGCTCGCC | 0.382 ratio |

Block 4
Target: RNA binding protein fox-1 homolog 2, RRM domain, GST-SBP tag (RBFOX2, Homo sapiens, UniProt O43251-10, residues 100-194)
Method: RNA Bind-n-Seq
Molecule type: RNA
Matrix: in vitro
Concentration: 365 nM
Notes: natural RNA segment, single round, ends assumed
Baseline: no-protein control
Direction: higher = stronger binding
Shared flanks, not repeated: GGGAGUUCUACAGUCCGACGAUC … UGGAAUUCUCGGGUGCCAA
Target sequence (chain): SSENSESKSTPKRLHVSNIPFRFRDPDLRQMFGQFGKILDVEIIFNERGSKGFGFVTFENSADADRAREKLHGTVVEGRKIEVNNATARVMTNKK
| Sequence | RBNS enrichment (R) |
| --- | --- |
| CUUCACAGCACCUUCCCAGUGGGUAGAAAGCCACACACCAGGAUGUGGGUCAACCAUGAAGAUGUGGCAUUGCAGACGGGGGAACAUGUGGAUGCAUGGCUAUCGCCCUG | 1.7 |
| CAUUGCCAUUUAUUCUAGAAUUAAUCAUGCAUUUGAGGUAAUACAAAAUAUAGUUUUAUCAUGUUAGGUGUAAUUAUGAUUUGAUUAAAUAUAUAAUGCAUUUGCAGUUG | 0.284 |
| CUGCCUUGUUCUGUCAUCCAGGGCUCCUUUGCUGCCCCGUUCUGUCACCCAGGGCUCCUAGGGGGACAAGGCUCUCUCCCGAGGGGUGUGGAAUUCCUGGGGGGGUCUUU | 1.07 |
| GAUUGUGGAGUGUUUACUAGAUACAUAAUGAGGUGCUAAGUUGUGGGGAAGUCUCAUGUAACUCAGAACACUAUCCUGGUCCCAGGCUACACUGUGCACUACGUCUUUAG | 0.561 |
| GUAUAUUACGUGAAAUGUGAAGUUAAAACUGAAGCUAAGAGUGUUUGUGGUUGUAAUUGUUUUUUUUUUGAAAUGUUUUUUUUAUUAUGAAAUAAAACGGAUGUUAAUUU | 1.44 |
| CUGGAAGAUUUUUAACAAAGGGAAAAACCAACAGCAAUAAGUCAUUGGUGAGCAGCUAACUCGCUCAUUGAUGAGCAGCUAACUCUCACACACAUACACACACACACACA | 0.7 |
| CGUGACUCCCGCCUCCUCCCUGUGCUCUCUGGCUCUGGACUGUGACUGCGCCUGGAUUCUGCCAUUGCGACACAUUUUUGUGCCUUUCAGCCCCUGGUGUCUGCAGUGGG | 0.334 |
| UUCUGUUUCUGAGGACUUUUAGCAAGAGACAGAAAAUCCUGCCAUUCUGGUUGGAAAUUAUAUAAACCAACAUGACAAUAACUGUUUCCCCCCAAAAGGCUCAGGAGCUG | 0.376 |
| ACCACCUUGUCUUUAAAGAUCACUUUCCUGGGCUGCAAUGUUCCAACCCAGUUGUUCCAGCUGUUCACAACCAGUGUGUGAUUUUGCUUAGUUGGUGCCCAUUCUGCACC | 0.632 |
| GGGUUCCCUUUGACUCCCCUGCUAACCCCACAUAAUUGAGAAUGUUUUGACCAAGUGUAAAAAUAGCUGGCCUUUUCCUUGUGAUUGGUCUUUAUUAGUCUUUUUAAUGC | 0.426 |
| CCAGAGGUCCCAGCAGUCACACUGCUCUGCAGGCCGGGCUCUCUUUAUAGCCAGAGAAAUCACCUUAAUGCAGUCUCUUUAGUUGUCUGCUGAAGCUGUAGUUAUUAUGG | 0.225 |
| AGAGACCCACUGUAAUUGAUGCAUUGUGGCCCCUGAUCUUCCCUGUCUCACACUUCUUUUCUCCCAUCCCGGUUGCAAUCUCACUCAGACAUCACAGUACCACCCCAGGG | 0.533 |

Repeated from above (block 1):
| Sequence | log2 enrichment |
| --- | --- |
| UCCUGUGCUACACAUCGUAUGUACCGAAUCAAACCCCCAAACCCCCAAAUUUUUUUAAAAAAGUAUUAUGUUACGCCGUUCGGAUCUGCA | -0.695 |
| GUCCUGUGCUACACAUCGUAUGUACCGAAUCGGAAAAAGGUUUUUUUGGUUUUUUUGGAAAGUAUUAUGUUACGCCGUUCGGAUCUGCAC | -1.98 |
| UAACUUUAGAGGAGGUUCUGAUGGAUAUGGCAGUGGACGUGGAUUUGGGGAUGGCUAUAAUGGGUAUGGAGGAGGACCUGGAGGUGGCAA | -1.37 |
| UGGCAGGAAAGAGUUCCUAGAGAGAGAAGACAAAGACAGUCUGUGUUGCAAAAGAAGCCCAAGGCUGAAGAUUUAAGAACUGAAUGUGCA | -1.79 |
